Measurements of several laboratories.
Protocols differ between the studies behind these lines. ± marks the error that the study gave.
Isochorismatase domain-containing protein 1: Isochorismatase domain-containing protein 1 (Homo sapiens, UniProt Q96CN7)
Sequence of UniProt Q96CN7 (whole entry, looked up): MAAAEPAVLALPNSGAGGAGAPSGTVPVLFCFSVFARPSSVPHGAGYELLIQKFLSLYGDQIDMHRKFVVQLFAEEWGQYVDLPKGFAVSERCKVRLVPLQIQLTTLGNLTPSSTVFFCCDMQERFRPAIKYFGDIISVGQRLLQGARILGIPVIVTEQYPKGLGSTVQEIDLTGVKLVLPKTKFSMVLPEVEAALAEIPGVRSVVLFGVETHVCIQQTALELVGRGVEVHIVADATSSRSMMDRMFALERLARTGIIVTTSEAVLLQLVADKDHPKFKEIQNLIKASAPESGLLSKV
PLEKHA4 PH domain: Pleckstrin homology domain-containing family A member 4, PH domain (PLEKHA4, Homo sapiens, UniProt Q9H4M7)
Sequence of UniProt Q9H4M7 (whole entry, looked up): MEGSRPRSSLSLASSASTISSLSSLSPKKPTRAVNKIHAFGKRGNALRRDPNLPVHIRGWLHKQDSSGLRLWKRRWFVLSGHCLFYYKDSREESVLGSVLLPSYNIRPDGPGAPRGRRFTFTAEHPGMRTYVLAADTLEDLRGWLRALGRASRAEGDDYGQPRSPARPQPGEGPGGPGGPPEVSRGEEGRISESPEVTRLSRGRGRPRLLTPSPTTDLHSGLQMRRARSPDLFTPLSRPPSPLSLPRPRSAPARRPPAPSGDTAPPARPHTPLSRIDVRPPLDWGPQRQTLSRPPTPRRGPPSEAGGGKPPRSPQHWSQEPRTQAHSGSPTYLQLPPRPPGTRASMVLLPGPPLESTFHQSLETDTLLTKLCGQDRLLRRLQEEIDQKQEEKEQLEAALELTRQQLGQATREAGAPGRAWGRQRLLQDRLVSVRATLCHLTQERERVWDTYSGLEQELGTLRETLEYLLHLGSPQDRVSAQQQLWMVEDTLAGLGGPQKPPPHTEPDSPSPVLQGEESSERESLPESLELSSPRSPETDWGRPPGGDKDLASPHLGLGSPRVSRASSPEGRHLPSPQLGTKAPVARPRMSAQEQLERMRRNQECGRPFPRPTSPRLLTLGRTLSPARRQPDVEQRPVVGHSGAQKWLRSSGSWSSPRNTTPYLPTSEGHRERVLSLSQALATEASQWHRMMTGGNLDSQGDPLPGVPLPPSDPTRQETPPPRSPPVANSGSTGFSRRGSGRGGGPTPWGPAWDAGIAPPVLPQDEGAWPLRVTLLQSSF
Sequence of UniProt P14635 (whole entry, looked up): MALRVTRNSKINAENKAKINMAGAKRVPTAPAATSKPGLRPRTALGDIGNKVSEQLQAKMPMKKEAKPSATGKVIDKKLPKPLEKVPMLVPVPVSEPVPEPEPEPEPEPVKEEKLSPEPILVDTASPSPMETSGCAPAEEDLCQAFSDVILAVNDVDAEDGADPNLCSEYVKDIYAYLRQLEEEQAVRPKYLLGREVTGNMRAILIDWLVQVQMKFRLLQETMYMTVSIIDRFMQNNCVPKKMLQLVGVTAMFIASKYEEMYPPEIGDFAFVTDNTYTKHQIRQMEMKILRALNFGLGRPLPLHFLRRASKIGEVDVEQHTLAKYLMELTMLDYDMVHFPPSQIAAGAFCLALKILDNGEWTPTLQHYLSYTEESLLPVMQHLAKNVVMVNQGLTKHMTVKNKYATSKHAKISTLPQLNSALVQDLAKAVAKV
Sequence of UniProt Q96SW2 (whole entry, looked up): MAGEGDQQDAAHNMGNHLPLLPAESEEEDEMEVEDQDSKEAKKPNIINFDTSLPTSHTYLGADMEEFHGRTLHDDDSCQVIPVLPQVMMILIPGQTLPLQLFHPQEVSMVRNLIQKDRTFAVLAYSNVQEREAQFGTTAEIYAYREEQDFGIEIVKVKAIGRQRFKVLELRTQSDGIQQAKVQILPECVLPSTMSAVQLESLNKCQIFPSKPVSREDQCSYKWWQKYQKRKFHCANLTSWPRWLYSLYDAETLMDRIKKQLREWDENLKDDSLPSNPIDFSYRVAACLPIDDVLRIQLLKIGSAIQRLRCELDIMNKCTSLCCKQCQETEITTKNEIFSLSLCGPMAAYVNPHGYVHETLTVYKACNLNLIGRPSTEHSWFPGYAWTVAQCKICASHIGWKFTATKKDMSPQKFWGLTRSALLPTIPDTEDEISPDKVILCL
Sequence of UniProt Q15391 (whole entry, unmodified, looked up): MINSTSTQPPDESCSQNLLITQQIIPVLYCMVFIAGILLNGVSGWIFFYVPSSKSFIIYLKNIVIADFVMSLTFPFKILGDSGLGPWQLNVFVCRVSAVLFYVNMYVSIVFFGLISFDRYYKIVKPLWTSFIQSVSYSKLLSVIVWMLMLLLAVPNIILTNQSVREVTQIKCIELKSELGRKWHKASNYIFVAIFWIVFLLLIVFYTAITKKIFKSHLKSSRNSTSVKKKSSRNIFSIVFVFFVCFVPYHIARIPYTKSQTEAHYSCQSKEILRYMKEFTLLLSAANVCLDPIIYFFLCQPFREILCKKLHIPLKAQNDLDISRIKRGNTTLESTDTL
Sequence of UniProt P35363 (whole entry, looked up): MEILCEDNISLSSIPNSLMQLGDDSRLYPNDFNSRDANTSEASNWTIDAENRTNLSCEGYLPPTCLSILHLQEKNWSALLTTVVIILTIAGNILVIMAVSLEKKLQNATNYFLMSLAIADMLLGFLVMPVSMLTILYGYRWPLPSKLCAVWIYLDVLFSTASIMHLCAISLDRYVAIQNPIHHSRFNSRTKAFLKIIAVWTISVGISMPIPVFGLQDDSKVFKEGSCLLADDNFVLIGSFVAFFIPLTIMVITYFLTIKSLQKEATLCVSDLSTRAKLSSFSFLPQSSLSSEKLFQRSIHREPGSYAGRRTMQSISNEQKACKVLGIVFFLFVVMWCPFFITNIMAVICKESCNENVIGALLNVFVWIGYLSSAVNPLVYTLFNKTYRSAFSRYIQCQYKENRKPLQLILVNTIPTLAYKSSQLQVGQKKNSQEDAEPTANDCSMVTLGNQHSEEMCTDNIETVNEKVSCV
Sequence of UniProt Q147X3 (whole entry, looked up): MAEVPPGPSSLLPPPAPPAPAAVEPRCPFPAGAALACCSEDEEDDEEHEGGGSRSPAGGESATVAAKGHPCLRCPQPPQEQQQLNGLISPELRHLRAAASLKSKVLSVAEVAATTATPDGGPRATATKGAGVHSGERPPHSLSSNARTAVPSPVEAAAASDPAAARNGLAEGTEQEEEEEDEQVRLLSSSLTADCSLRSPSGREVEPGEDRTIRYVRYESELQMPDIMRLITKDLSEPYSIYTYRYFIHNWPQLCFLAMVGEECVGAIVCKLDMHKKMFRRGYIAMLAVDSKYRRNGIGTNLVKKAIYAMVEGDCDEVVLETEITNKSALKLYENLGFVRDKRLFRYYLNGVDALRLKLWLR
Sequence of UniProt Q9UKS7 (whole entry, looked up): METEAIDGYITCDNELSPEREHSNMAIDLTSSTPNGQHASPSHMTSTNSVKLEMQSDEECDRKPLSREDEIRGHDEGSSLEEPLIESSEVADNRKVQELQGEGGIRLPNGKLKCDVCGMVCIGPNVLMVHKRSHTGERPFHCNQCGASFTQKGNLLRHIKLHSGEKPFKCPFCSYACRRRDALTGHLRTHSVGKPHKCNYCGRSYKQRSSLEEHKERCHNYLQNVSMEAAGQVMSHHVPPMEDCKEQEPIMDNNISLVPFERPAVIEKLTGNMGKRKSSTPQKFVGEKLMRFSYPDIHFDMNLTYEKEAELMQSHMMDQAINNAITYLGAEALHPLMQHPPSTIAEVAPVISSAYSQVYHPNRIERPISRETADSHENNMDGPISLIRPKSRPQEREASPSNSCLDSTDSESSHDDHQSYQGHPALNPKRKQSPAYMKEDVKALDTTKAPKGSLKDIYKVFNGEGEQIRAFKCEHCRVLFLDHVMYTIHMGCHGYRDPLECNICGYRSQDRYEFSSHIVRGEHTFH

SMILES = CC(C)[C@H](NC(=O)[C@H](Cc1ccc(O)cc1)NC(=O)[C@H](Cc1ccc(O)cc1)NC(=O)[C@@H]1CCCN1C(=O)[C@H](CCC(=O)O)NC(=O)[C@H](CCC(=O)O)NC(=O)[C@H](Cc1c[nH]c2ccccc12)NC(=O)[C@@H]1CCCN1C(=O)[C@@H](NC(=O)[C@H](CCC(N)=O)NC(=O)c1ccc2c(c1)C(=O)OC21c2ccc(O)cc2Oc2cc(O)ccc21)C(C)C)C(=O)N[C@H](C(=O)N[C@@H](CCCCN)C(=O)N[C@@H](CCCCN)C(=O)N[C@@H](CO)C(=O)N[C@@H](CO)C(=O)NCC(=O)NCC(N)=O)C(C)C; system = human, plasma; conditions = intravenous infusion, 189.6 mg, 0.08333 h; quantity = plasma concentration; value = 8520 ng/mL
SMILES = COc1cc(O)c2c(c1)C(=O)c1cc(C)cc(O)c1C2=O; target or system = HK-2 co-cultured with HepaRG; assay = MTT; conditions = 33.33 µM, 48 h; how to read = relative to: untreated control; quantity = viability; value = 97.7 ± 3.82%
SMILES = CCCCOc1ccc(CC(=O)NO)cc1; target or system = Isochorismatase domain-containing protein 1; assay = inhibitor, competition pulldown; system = SW620 and MV4-11 lysate; conditions = 1 h; quantity = Kd; value = 3.73 µM
SMILES = COc1ccc(C(=O)CC(SCc2ccc(Cl)cc2)C(=O)O)cc1 (centres unmarked); target or system = PLEKHA4 PH domain; assay = PLEKHA4 PI(4,5)P2 binding, fluorescence polarization; conditions = together with: BODIPY-PI(4,5)P2 tracer; quantity = Ki; value = 167 ± 44 µM
SMILES = Cc1nn(CC(F)(F)F)cc1Nc1nccc(NCCc2cnc[nH]2)n1; target or system = 16-kinase panel; assay = radiometric; conditions = 1 µM, ATP at Km; how to read = below 10% of control; quantity = number of kinases inhibited; value = 0
SMILES = CCOc1ccc(C(=O)CC(SCc2ccc(OC)cc2)C(=O)O)cc1 (centres unmarked); target or system = PLEKHA4 PH domain; assay = PLEKHA4 PI(4,5)P2 binding, fluorescence polarization; conditions = together with: BODIPY-PI(4,5)P2 tracer; quantity = Ki; value = 222 ± 23 µM
SMILES = O=c1ccn([C@@H]2O[C@H](COP(=O)(O)OP(=O)(O)O[C@H]3O[C@H](CO)[C@@H](O)[C@H](O)[C@H]3O)[C@@H](O)[C@H]2O)c(=S)[nH]1; target or system = P2Y purinoceptor 14 (P2RY14, Homo sapiens, UniProt Q15391, Y256A); quantity = Ki; value = > 3 µM
SMILES = N#C[C@@]12C[C@@H]1[C@@H](n1cnc3c(NC4CCCC4)nc(I)nc31)[C@H](O)[C@@H]2O; target or system = 5-hydroxytryptamine receptor 2A (Htr2a, Mus musculus, UniProt P35363); assay = antagonist, Gq dissociation BRET; conditions = mouse receptor; quantity = Kb; value = 6.55 µM
SMILES = CC(C)[C@H](NC(=O)[C@@H](NC(=O)CCCc1cn(CC(O)CN2CCN(CC(=O)O)CCN(CC(=O)O)CCN(CC(=O)O)CC2)nn1)[C@@H](C)O)C(=O)N[C@@H](CCCNC(=N)N)C(=O)N[C@H](C(=O)N[C@@H](CO)C(=O)N[C@@H](C)C(=O)N[C@@H](CC(=O)O)C(=O)O)[C@@H](C)O (some centres unmarked); system = healthy male humans, plasma; conditions = intravenous, 0.08 mmol/kg; quantity = AUC(0-inf); value = 2200 ± 162 µg·h/mL
SMILES = NS(=O)(=O)c1ccc(CNc2nc(Nc3cccc(CN4CCOCC4)c3)ncc2Br)cc1; target or system = 16-kinase panel; assay = radiometric; conditions = 1 µM, ATP at Km; how to read = below 10% of control; quantity = number of kinases inhibited; value = 4
SMILES = CC(C)(COP(=O)(O)OP(=O)(O)OC[C@H]1O[C@@H](n2cnc3c(N)ncnc32)[C@H](O)[C@@H]1OP(=O)(O)O)[C@@H](O)C(=O)NCCC(=O)NCCS; target or system = N-alpha-acetyltransferase 30 (NAA30, Homo sapiens, UniProt Q147X3); assay = competitor, competition MS pulldown; system = SW-620 cell lysate; conditions = together with: photo-immobilized beads; quantity = Kd; value = 5.23 µM
SMILES = C#CCOc1cccc(C(=O)CC(SCc2cccc(Br)c2)C(=O)O)c1 (centres unmarked); target or system = PLEKHA4 PH domain; assay = PLEKHA4 PI(4,5)P2 binding, fluorescence polarization; conditions = together with: BODIPY-PI(4,5)P2 tracer; quantity = Ki; value = 39 ± 7.1 µM
SMILES = O=C(NCCCNc1nc(Nc2cccc(NC(=O)N3CCCC3)c2)ncc1C1CC1)C1CCC1; target or system = 16-kinase panel; assay = radiometric; conditions = 1 µM, ATP at Km; how to read = below 10% of control; quantity = number of kinases inhibited; value = 9
SMILES = COc1cc2c(c(OC)c1OC)-c1c(cc(OC)c(OC)c1OC)C[C@H](C)[C@H](C)C2; target or system = CYP3A, rat; assay = poziotinib metabolism to M2, inhibitor; system = rat liver microsomes; conditions = together with: poziotinib; quantity = αKi; value = 5.98 µM
SMILES = NS(=O)(=O)c1ccc(CNc2ccnc(Nc3cccc(CN4CCOCC4)c3)n2)cc1; target or system = 16-kinase panel; assay = radiometric; conditions = 1 µM, ATP at Km; how to read = below 10% of control; quantity = number of kinases inhibited; value = 0
SMILES = CC(=O)c1c(C)c2cnc(Nc3ccc(N4CCN(CCCOc5ccc(CN6CCC(c7ccc8c(c7)CN(C7CCC(=O)NC7=O)C8=O)CC6)cc5)CC4)cn3)nc2n(C2CCCC2)c1=O (centres unmarked); target or system = CRBN/Zinc finger protein Helios (Homo sapiens, UniProt Q96SW2+Q9UKS7); assay = protein degradation, degrader, immunoblot; system = Jurkat; conditions = 4 h; quantity = DC50; value = 0.099 µM
SMILES = Cc1nn(CC(F)(F)F)cc1Nc1ncc(Br)c(NCc2ccc(S(N)(=O)=O)cc2)n1; target or system = 16-kinase panel; assay = radiometric; conditions = 1 µM, ATP at Km; how to read = below 10% of control; quantity = number of kinases inhibited; value = 12
SMILES = CCCCc1nc2cc(/C=C/C(=O)NO)ccc2n1CCN(CC)CC; target or system = Isochorismatase domain-containing protein 1; assay = inhibitor, competition pulldown; system = SW620 and MV4-11 lysate; conditions = 1 h; quantity = Kd; value = > 30.2 µM
SMILES = COc1cc2c(c(OC)c1OC)-c1c(cc3c(c1OC)OCO3)CC(C)C(C)C2 (centres unmarked); target or system = CYP3A, rat; assay = poziotinib metabolism to M1, inhibitor; system = rat liver microsomes; conditions = together with: poziotinib; quantity = αKi; value = 6.18 µM
SMILES = CCOc1ccc(C(=O)CC(SCc2ccc(Cl)cc2)C(=O)OC)cc1 (centres unmarked); target or system = PLEKHA4 PH domain; assay = PLEKHA4 PI(4,5)P2 binding, fluorescence polarization; conditions = together with: BODIPY-PI(4,5)P2 tracer; quantity = Ki; value = > 1000 µM
SMILES = CCCN1CCN(c2ccc(-c3cncc(Cl)c3N3CCC4(CCNC4=O)CC3)cc2)CC1; target or system = G2/mitotic-specific cyclin-B1 (Homo sapiens, UniProt P14635); assay = SILAC displacement; system = LS174T-L5 cell lysate; quantity = Kd; value = 7.04 µM
SMILES = Brc1cnc(Nc2cccc(CN3CCOCC3)c2)nc1NCCc1c[nH]cn1; target or system = 16-kinase panel; assay = radiometric; conditions = 1 µM, ATP at Km; how to read = below 10% of control; quantity = number of kinases inhibited; value = 13
SMILES = O=C(CCCCCCC(=O)Nc1ccccc1)NO; target or system = Isochorismatase domain-containing protein 1; assay = inhibitor, competition pulldown; system = SW620 and MV4-11 lysate; conditions = 1 h; quantity = Kd; value = 0.152 µM
SMILES = CCOc1ccc(C(=O)CC(SCc2ccc(Cl)cc2)C(=O)O)cc1OCC (centres unmarked); target or system = PLEKHA4 PH domain; assay = PLEKHA4 PI(4,5)P2 binding, fluorescence polarization; conditions = together with: BODIPY-PI(4,5)P2 tracer; quantity = Ki; value = 53.6 ± 8 µM
SMILES = COc1c(O[C@@H]2O[C@H](CO)[C@@H](O)[C@H](O)[C@H]2O)cc2c(c1O)C(=O)c1c(cc(C)c(O)c1OC)C2=O; target or system = HK-2 co-cultured with HepaRG; assay = MTT; conditions = 266.67 µM, 24 h; how to read = relative to: untreated control; quantity = cell viability; value = 88 ± 10.6%
SMILES = O=C(CCCCCN1C(=O)c2cccc3cccc(c23)C1=O)NO; target or system = Isochorismatase domain-containing protein 1; assay = inhibitor, competition pulldown; system = SW620 and MV4-11 lysate; conditions = 1 h; quantity = Kd; value = 3.03 µM
SMILES = Cc1nn(CC(F)(F)F)cc1Nc1ncc(C2CC2)c(NCc2ccc(S(N)(=O)=O)cc2)n1; target or system = 16-kinase panel; assay = radiometric; conditions = 1 µM, ATP at Km; how to read = below 10% of control; quantity = number of kinases inhibited; value = 1
SMILES = Nc1nc2c(ncn2[C@@H]2O[C@@H]3COP(=O)(O)O[C@H]3[C@H]2O)c(=O)[nH]1; target or system = Cone cGMP-gated channel (Morone saxatilis, UniProt Q3I0N1+Q3I0N2); assay = channel current, agonist, suction electrode; system = Morone saxatilis cone outer segments; conditions = together with: 0 µM Ca2+; quantity = EC50; value = 112 µM
SMILES = O=C(/C=C/c1cccc(S(=O)(=O)Nc2ccccc2)c1)NO; target or system = Isochorismatase domain-containing protein 1; assay = inhibitor, competition pulldown; system = SW620 and MV4-11 lysate; conditions = 1 h; quantity = Kd; value = > 30.2 µM
